Measurements collected from several papers.
Each line is one published result; not all experiments were run side by side. Numbers after ± are the reported error.
B1: human RAB13; sequence looked up; chain MAKAYDHLFKLLLIGDSGVGKTCLIIRFAEDNFNNTYISTIGIDFKIRTVDIEGKKIKLQVWDTAGQERFKTITTAYYRGAMGIILVYDITDEKSFENIQNWMKSIKENASAGVERLLLGNKCDMEAKRKVQKEQADKLAREHGIRFFETSAKSSMNVDEAFSSLARDILLKSGGRRSGNGNKPPSTDLKTCDKKNTNKC
Sequence of UniProt P26368 (whole entry, looked up): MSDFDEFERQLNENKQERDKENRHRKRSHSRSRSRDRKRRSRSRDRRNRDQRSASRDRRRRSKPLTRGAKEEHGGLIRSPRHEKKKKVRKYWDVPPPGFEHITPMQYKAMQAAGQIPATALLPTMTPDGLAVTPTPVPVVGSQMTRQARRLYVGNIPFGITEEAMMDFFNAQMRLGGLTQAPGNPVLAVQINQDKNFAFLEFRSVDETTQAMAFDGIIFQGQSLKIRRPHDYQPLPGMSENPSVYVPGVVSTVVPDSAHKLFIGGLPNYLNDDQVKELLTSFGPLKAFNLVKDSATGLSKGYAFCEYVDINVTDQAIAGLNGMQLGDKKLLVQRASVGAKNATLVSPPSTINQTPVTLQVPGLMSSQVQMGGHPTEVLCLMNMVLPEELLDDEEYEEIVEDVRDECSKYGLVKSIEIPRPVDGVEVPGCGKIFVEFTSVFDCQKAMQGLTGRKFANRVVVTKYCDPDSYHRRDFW

| Molecule | target or system | test | test system | conditions | how to read | endpoint | result |
| --- | --- | --- | --- | --- | --- | --- | --- |
| insulin | – | LC-MS/MS | human serum pool | low pool, two freeze-thaw cycles, with: C-peptide 1.55 ng/mL | – | concentration | 0.36 ng/mL |
| insulin degludec | – | – | human | subcutaneous, 0.4 IU/kg, 1 FC level, fat content group, single dose, reference formulation | – | Cmax | 20.7 ± 4.3 ng/mL |
| spectrin beta, non-erythrocytic 1 (human) | PP6C (human) | co-immunoprecipitation, IP-MS | CYB5R4 knockout cells | concentration not given | baseline: CYB5R4 knockout over parental | log2 fold change | 0.56 |
| AUACUUUUU (ssRNA) | U2AF2 148-342 (Homo sapiens, UniProt P26368) | sequencing of bound RNA | RNA | motif only | – | Kd | 3.48 µM |
| insulin icodec | – | – | Chinese type 2 diabetes patients, serum | subcutaneous, once-weekly geometric mean | – | dose-normalized Cmax at steady state | 91.6 (nmol/L)/(U/kg) |
| adrenomedullin | – | RP-HPLC | HALO RP-amide column | 25 µM, formic acid/methanol, 25 min gradient | – | retention time | 13.8 min |
| B1 (human RAB13) | CYB5R4 knockout human cells | PP6 interaction, 3xFLAG-PP6C IP-MS | – | concentration not given | baseline: CYB5R4 KO over parental | log2 fold change | -0.11 |
| Neuropeptide Y | – | RP-HPLC | HALO Phenyl-hexyl column | 25 µM, formic acid/acetonitrile, 10 min gradient | – | retention time | 4.25 min |
| pegcetacoplan | – | measured: nervous system disorders | patients with PNH | dose not given, phase Ib trial | – | number of TEAEs | 17 |
| durvalumab | – | – | human, plasma | intravenous, 1500 mg, cycle 4 day 1, with: adavosertib 300 mg once daily | – | Ctrough | 226000 ng/mL |
| insulin icodec | – | – | human, moderate renal impairment, serum | subcutaneous, 1.5 U/kg single dose | baseline: normal renal function | AUC(0-inf) increase | 24% |

A few entries again:
| Molecule | target or system | test | test system | conditions | how to read | endpoint | result |
| --- | --- | --- | --- | --- | --- | --- | --- |
| insulin | – | LC-MS/MS | human serum pool | low pool, two freeze-thaw cycles, with: C-peptide 1.55 ng/mL | – | concentration | 0.36 ng/mL |
